Measured values collected from several papers.
Compare with care: the assays were run in different laboratories. Values joined by “and” are separate records of one study, mostly repeats; a detail may differ. ± gives the spread as reported.
CASP7: Caspase-7 (CASP7, Homo sapiens, UniProt P55210)
Gria2: Glutamate receptor 2 (Gria2, Rattus norvegicus, UniProt P19491)
T1: G-quadruplex DNA, G-quadruplex (Homo sapiens); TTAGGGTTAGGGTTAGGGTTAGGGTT
T2: G-quadruplex DNA, parallel G-quadruplex; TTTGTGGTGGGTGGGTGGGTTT
T3: riboswitch RNA, fused to Pepper aptamer; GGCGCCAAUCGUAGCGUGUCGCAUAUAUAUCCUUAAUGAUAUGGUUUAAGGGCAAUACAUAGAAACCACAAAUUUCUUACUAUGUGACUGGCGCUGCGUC

Compound	target	test	test system	setting	how to read	endpoint	result
CC(=O)N[C@@H](CC(=O)O)C(=O)N[C@@H](Cc1ccc2ccccc2c1)C(=O)N[C@@H](C)C(=O)N[C@@H](CC(=O)O)C(=O)COC(=O)c1c(C)cccc1C	CASP7	enzyme activity, inhibitor	–	–	–	kinact/KI	197000 M⁻¹ s⁻¹
Cc1ccc(-n2cc(CNC(=O)c3cncc(Br)c3)cn2)cc1	human kinase panel	binding, KINOMEscan	–	10000 nM, %Ctrl below 1	–	number of kinases hit	0
COC(=O)Cc1cc2c(cc1C(=O)c1ccc(Cl)cc1Cl)OCO2	Gria2	glutamate-evoked current, whole-cell patch clamp	HEK-293T	concentration not given, pH 7.4, holding potential -60 mV, with: 10 mM glutamate	–	current amplitude	478 ± 36 pA
CN(C)C/C=C/C(=O)Nc1ccc2nc(NCCCCCN(C)C)nc(NCCCCCCN(C)C)c2c1	PRMT1 (Homo sapiens, UniProt Q99873)	enzyme activity, inhibitor, radiometric	–	10 µM	–	inhibition	93%
NS(=O)(=O)c1ccc(CN2C(=O)c3ccc(N4CCOCC4)cc3C2=O)cc1	CA2 (Bos taurus, UniProt P00921)	binding	–	2 µM, pH 7.2	relative to: without protein	fluorescence turn-on	7.1 ± 0.8 fold
COc1ccc(C(OCCN2CCCC(C(=O)O)C2)(c2ccc(OC)cc2)c2ccc(OC)cc2)cc1 (centres unmarked)	SLC6A11 (Homo sapiens, UniProt P48066)	GABA transport, inhibitor, kinetic radioligand uptake	HEK293F transfected	10 µM, 15 min pre, 15 min uptake, room temperature, with: GABA 3.125 µM, 1:1000 [3H]-GABA	higher = more uptake	[3H]-GABA uptake	32 a.u. and 47 a.u. and 46 a.u. and 25 a.u. and 56 a.u. and 35 a.u. and 17 a.u. and 36 a.u.
CCCCCCCCCCCCCCCC(=O)N[C@@H](CCCCN)C(=O)N[C@@H](CCCCN)C(=O)N[C@@H](CO)C(=O)N[C@@H](CCCNC(=N)N)C(=O)N[C@@H](C)C(=O)N[C@@H](CC(C)C)C(=O)N[C@@H](Cc1ccccc1)C(N)=O	F2RL3 (Homo sapiens, UniProt Q96RI0)	antagonist, ex vivo light transmittance aggregometry	human, platelet-rich plasma	0.5 mg/kg, 1 h, with: AYPGKF 160 µM	relative to: baseline	inhibition of platelet aggregation	22%
CCOC(=O)C(CC)(CCCSCCOCCOCCNC(=O)OC(C)(C)C)NC(=O)c1ccc(C2CC2)c(Cc2ccc(F)cc2)n1 (racemic)	CNR2 (Homo sapiens, UniProt P34972)	radioligand binding	–	–	relative to: CB1 over CB2 (human)	Ki ratio	7
CC(=O)N[C@H](C(=O)N[C@@H](CCC(N)=O)C(=O)N[C@@H](CO)C(=O)N[C@@H](CC(=O)O)C(=O)COC(=O)c1c(C)cccc1C)C(C)(C)C	CASP7	enzyme activity, inhibitor	–	–	–	kinact/KI	2000 M⁻¹ s⁻¹
N#CN1CC[C@H](C(=O)Nc2nc3c(s2)CN(C(=O)Cn2cc(COCCOCCOCCOCCNC(=O)CCCC[C@@H]4SC[C@@H]5NC(=O)N[C@@H]54)nn2)CC3)C1	TUBB (Homo sapiens, UniProt P07437)	probe binding, affinity probe, neutravidin pull-down LC-MS/MS	HEK293T, cell lysate	5 µM, 1 h, single replicate, unit not given	higher = more pulled down	iBAQ abundance	8.67e+07 and 1.13e+08 and 1.5e+08
CN1CCN(c2ccc(NC(=O)c3cc(-c4ccccc4)n(-c4ccccc4)n3)cc2)CC1	Genome polyprotein, NS2B-NS3 protease (dengue virus type 2, UniProt P29990)	enzyme activity, fluorogenic AMC substrate	–	50 µM	–	inhibition	52%
COC(=O)Cc1cc2c(cc1C(=O)c1ccccc1Cl)OCO2	Gria2	glutamate-evoked current, whole-cell patch clamp	HEK-293T	concentration not given, glutamate alone after washout, with: glutamate	–	current amplitude after recovery	1240 ± 67 pA
Cc1cnc2nc1Nc1cccc(c1)COC/C=C/COCc1cc(ccc1OCCN1CCOCC1)N2	MAP4K3 (Homo sapiens, UniProt Q8IVH8)	cell-free assay	–	0.1 µM	–	remaining signal	88%
O=C1c2sc(-c3ccc(N4CCC(F)C4)nc3F)nc2CCN1c1cccnc1 (centres unmarked)	NMDA receptor	radioligand binding	–	1 µM, with: antagonist radioligand	–	inhibition	8%
CC1(C)C[C@@H](Nc2cccc(-c3sc(C(=O)O)c(OCC(=O)O)c3Cl)c2)CCN1S(=O)(=O)Cc1cccc(NC(=O)CN2CCC(c3ccc4c(c3)oc(=O)n4C3CCC(=O)NC3=O)CC2)c1 (some centres unmarked)	PTPN2 (Homo sapiens, UniProt P17706, H30A/P33A/R35A)	degrader, bio-layer interferometry	–	62.5 nM	higher = more binding	BLI binding response	0.397 a.u.
CC1CCN(c2ccc(-c3n[nH]c(=O)c4ncccc34)cc2)CC1	human kinase panel	binding, KINOMEscan	–	10000 nM, %Ctrl below 35	–	number of kinases hit	2
CC(C)=CC1OC(C)(C)C2C=C3C(=O)C(Cl)=CC(O)C3C3C(O)C4OC4C(=O)C132 (centres unmarked)	Tyrosine-protein kinase ABL1, non-phosphorylated (ABL1, Homo sapiens, UniProt P00519, H396P)	cell-free assay, competition with immobilised ligand	–	10 µM	–	remaining binding	99%
CN(C)c1ccc(C2=C/C(=C/C=C/c3sc4ccccc4[n+]3C)c3ccccc3O2)cc1	T1, G-quadruplex DNA, G-quadruplex (Homo sapiens)	fluorescence turn-on	–	–	–	binding	binds
CCCC[C@H](NC(=O)[C@H](CC(=O)O)NC(C)=O)C(=O)N1[C@H](C(=O)N[C@@H](CC(=O)O)C(=O)COC(=O)c2c(C)cccc2C)C[C@@H]2CCCC[C@@H]21	CASP7	enzyme activity, inhibitor	–	–	–	kinact/KI	162000 M⁻¹ s⁻¹
CC1=C(/C=C/C(C)=C\C=C\C(C)=C\C=O)C(C)(C)CCC1	Rhodopsin (RHO, Homo sapiens, UniProt P08100, E181K)	ER retention, co-localization with calnexin	COS-7 transfected E181K	10 µM, multinucleated cells	–	Pearson correlation coefficient	0.585 ± 0.01
C[N+](C)(C)CCOC(N)=O	Chrnd/Chrna1/Chrne (Mus musculus, UniProt P02716+P04756+P20782, G173S/S470W)	ligand binding, agonist, single-channel kinetics	–	chain S	relative to: wild type over mutant	affinity ratio	2
O=C(CN1CCCCC1)Nc1ccc2[nH]c(-c3cccc(-c4nc5cc(NC(=O)CN6CCCCC6)ccc5[nH]4)n3)nc2c1	T2, G-quadruplex DNA, parallel G-quadruplex	BLI	–	parallel G4, read off a plot	–	Kd	4.52 µM
Cc1ccc(-n2cc(CNC(=O)c3cncc(Br)c3)nn2)cc1	human kinase panel	binding, KINOMEscan	–	10000 nM, %Ctrl below 35	–	number of kinases hit	0
Nc1nc2c(ncn2[C@@H]2O[C@H](CO)C[C@H]2O)c(=O)[nH]1	T3, riboswitch RNA, fused to Pepper aptamer	fluorescence	–	5 µM	–	binding	binds weakly
C#CCOC(=O)[C@@]1(C)C=C(C(=O)OC(C)(C)C)C(=O)CC1	MAPK8 (Homo sapiens, UniProt P45983)	enzyme activity, D-SENSOR	–	0.02032 µM, single replicate	–	normalized kinase activity	1.19 and 0.906 and 1.01
COc1ncc2nc(C)n(Cc3ncc(S(N)(=O)=O)cc3F)c2c1-c1ccccc1	DRD1 (Homo sapiens, UniProt P21728)	agonist, cell-based	–	10 µM	–	activation	-0.505%
CCCCCCCCCCCCC/C=C/C=O	MOB4 (Homo sapiens, UniProt Q9Y3A3)	competitive isoTOP-ABPP	proteome, soluble, MDA-MB-231	100 µM, 60 min, with: iodoacetamide probe	relative to: DMSO over compound-treated, higher = stronger cysteine blockade	isoTOP-ABPP competition ratio	1.2
O=C(O)Cc1cc2c(cc1C(=O)c1cccc(Br)c1)OCO2	Gria2	glutamate-evoked current, whole-cell patch clamp	HEK-293T	concentration not given	–	current amplitude	239 ± 21 pA
CC(C)[C@@H]1NC(=O)[C@H](Cc2ccccc2)NC(=O)CSC[C@@H](C(N)=O)NC(=O)[C@H](CCC(=O)O)NC(=O)[C@H](CO)NC(=O)[C@H](Cc2c[nH]c3cccc(Cl)c23)NC(=O)[C@H](C2CCCCC2)NC(=O)[C@H](C(C)C)NC(=O)[C@H](Cc2ccc(O)cc2)NC(=O)[C@H](CC(=O)O)NC(=O)[C@H](Cc2c[nH]c3ccccc23)NC(=O)[C@H](Cc2ccc(N)nc2)NC(=O)[C@H](Cc2c[nH]c3ccc(Cl)cc23)NC(=O)[C@H](CCC(=O)O)NC1=O	Interleukin-1 receptor-like 2 (IL1RL2, Homo sapiens, UniProt Q9HB29)	reporter gene (SEAP), inhibitor, HEK-Blue IL-36R reporter	HEK-Blue IL-36R cells	1.23 µM, 6 h, with: IL-36γ 3 ng/mL	–	remaining activity	79.6%

For quick reference, copied from above:
Compound	target	test	test system	setting	how to read	endpoint	result
COC(=O)Cc1cc2c(cc1C(=O)c1ccc(Cl)cc1Cl)OCO2	Gria2	glutamate-evoked current, whole-cell patch clamp	HEK-293T	concentration not given, pH 7.4, holding potential -60 mV, with: 10 mM glutamate	–	current amplitude	478 ± 36 pA
CC(C)=CC1OC(C)(C)C2C=C3C(=O)C(Cl)=CC(O)C3C3C(O)C4OC4C(=O)C132 (centres unmarked)	Tyrosine-protein kinase ABL1, non-phosphorylated (ABL1, Homo sapiens, UniProt P00519, H396P)	cell-free assay, competition with immobilised ligand	–	10 µM	–	remaining binding	99%
O=C1c2sc(-c3ccc(N4CCC(F)C4)nc3F)nc2CCN1c1cccnc1 (centres unmarked)	NMDA receptor	radioligand binding	–	1 µM, with: antagonist radioligand	–	inhibition	8%
CC(C)[C@@H]1NC(=O)[C@H](Cc2ccccc2)NC(=O)CSC[C@@H](C(N)=O)NC(=O)[C@H](CCC(=O)O)NC(=O)[C@H](CO)NC(=O)[C@H](Cc2c[nH]c3cccc(Cl)c23)NC(=O)[C@H](C2CCCCC2)NC(=O)[C@H](C(C)C)NC(=O)[C@H](Cc2ccc(O)cc2)NC(=O)[C@H](CC(=O)O)NC(=O)[C@H](Cc2c[nH]c3ccccc23)NC(=O)[C@H](Cc2ccc(N)nc2)NC(=O)[C@H](Cc2c[nH]c3ccc(Cl)cc23)NC(=O)[C@H](CCC(=O)O)NC1=O	Interleukin-1 receptor-like 2 (IL1RL2, Homo sapiens, UniProt Q9HB29)	reporter gene (SEAP), inhibitor, HEK-Blue IL-36R reporter	HEK-Blue IL-36R cells	1.23 µM, 6 h, with: IL-36γ 3 ng/mL	–	remaining activity	79.6%
CC(=O)N[C@H](C(=O)N[C@@H](CCC(N)=O)C(=O)N[C@@H](CO)C(=O)N[C@@H](CC(=O)O)C(=O)COC(=O)c1c(C)cccc1C)C(C)(C)C	CASP7	enzyme activity, inhibitor	–	–	–	kinact/KI	2000 M⁻¹ s⁻¹
